Measurements of several laboratories.
A part holds a random share of what one study measured. “And” joins repeats or separate records; there may be more than shown.

Sample 1
Compound: Cc1ccc(O)c(C)c1-c1cnc2[nH]c(-c3cnc(N4CCC5(CC4)CC(N4CCN(c6ccc(N[C@H]7CCC(=O)NC7=O)cc6F)CC4)CO5)nc3)cc2c1C#N (single isomer, unassigned)
Target: Protein cereblon (CRBN, Homo sapiens, UniProt Q96SW2)
Sequence of UniProt Q96SW2 (whole entry, looked up): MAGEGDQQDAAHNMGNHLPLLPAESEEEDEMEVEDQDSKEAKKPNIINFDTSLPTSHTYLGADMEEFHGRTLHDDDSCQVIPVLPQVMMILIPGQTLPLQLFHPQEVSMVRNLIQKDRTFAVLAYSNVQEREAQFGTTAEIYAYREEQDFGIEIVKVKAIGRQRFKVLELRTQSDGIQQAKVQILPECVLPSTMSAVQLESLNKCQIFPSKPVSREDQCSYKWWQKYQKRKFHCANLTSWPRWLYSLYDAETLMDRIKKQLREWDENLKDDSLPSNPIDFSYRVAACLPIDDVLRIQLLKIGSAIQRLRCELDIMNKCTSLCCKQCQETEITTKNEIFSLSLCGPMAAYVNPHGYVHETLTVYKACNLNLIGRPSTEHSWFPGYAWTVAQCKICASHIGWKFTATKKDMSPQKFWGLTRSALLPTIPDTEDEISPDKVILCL
The binding was 50% and 47.1% (10000 nM).
For 3333.33 nM: binding read 29.4% and 18.2%.
4.57 nM — binding: 3.49% and 4.58%.
30000 nM — binding: 68.7% and 71.1%.

Sample 2
SMILES: CCN1/C(=C/C=C2\CCCC(/C=C/C3=[N+](CC)c4ccccc4C3(C)C)=C2NCCCCCCCCN2CCC(Nc3nc4ccccc4n3Cc3ccc(F)cc3)CC2)C(C)(C)c2ccccc21
Cell line: U-87 MG
Tested at: concentration not given
Relative to: DMSO
For item: SDCBP mRNA: “log2 fold change” read 0.876.
The “log2 fold change” was 1.38 (item: GCC1 mRNA).
The “log2 fold change” was -0.807 (item: ZFP36L2 mRNA).
It gave 1.03 for “log2 fold change” (item: DUSP16 mRNA).
The “log2 fold change” was 0.941 (item: UBE2Z mRNA).
The “log2 fold change” was 1.72 (item: TNFRSF10B mRNA).
item: PRPF3 mRNA — “log2 fold change”: 1.46.
item: LRFN4 mRNA — “log2 fold change”: -1.36.
It gave 1.42 for “log2 fold change” (item: ZBTB21 mRNA).
item: DKK1 mRNA — “log2 fold change”: -1.39.
item: ERAP2 mRNA — “log2 fold change”: -0.947.
The “log2 fold change” was -0.9 (item: C5orf34 mRNA).
item: GOSR2 mRNA — “log2 fold change”: 1.1.
For item: OSGIN2 mRNA: “log2 fold change” read 1.21.
The “log2 fold change” was -1.79 (item: KIF4A mRNA).
item: PYCR3 mRNA — “log2 fold change”: -1.04.

Sample 3
Structure (SMILES): COCC1CC2C(CCC3C(O)CCC32)c2ccc(O)cc21 (centres unmarked)
A549; DNA microarray, item: MCM10; 100 µM; relative to: untreated cells — “mRNA level ratio”: 0.747.
It gave 0.811 for “mRNA level ratio” (SK-OV-3; microarray, item: PIF1; 25 µM; relative to: untreated).
It gave 1.47 for “mRNA level ratio” (PANC-1; microarray, item: PIF1; 25 µM; relative to: untreated).
The “mRNA level ratio” was 0.619 and 0.617 and 0.641 and 0.622 and 0.627 (PANC-1; DNA microarray, item: GAPDH; 100 µM; relative to: untreated cells).
SK-OV-3; microarray, item: AURKA; 100 µM; relative to: untreated — “mRNA level ratio”: 1.04.
For PANC-1; microarray, item: SPC25; 100 µM; relative to: untreated: “mRNA level ratio” read 1.4.
A549; microarray, item: OLIG2; 100 µM; relative to: untreated — “mRNA level ratio”: 1.
The “mRNA level ratio” was 1.45 (PANC-1; DNA microarray, item: MCM10; 25 µM; relative to: untreated cells).
For A549; microarray, item: PIF1; 25 µM; relative to: untreated: “mRNA level ratio” read 0.855.
For A549; DNA microarray, item: TMEM108; 100 µM; relative to: untreated cells: “mRNA level ratio” read 2.99.
A549; microarray, item: PIF1; 100 µM; relative to: untreated — “mRNA level ratio”: 0.696.
The “mRNA level ratio” was 0.971 (A549; microarray, item: CDC25B; 100 µM; relative to: untreated).
A549; DNA microarray, item: ACTA2; 100 µM; relative to: untreated cells — “mRNA level ratio”: 1.48.
SK-OV-3; DNA microarray, item: C6; 25 µM; relative to: untreated cells — “mRNA level ratio”: 165.
A549; DNA microarray, item: KIF20A; 25 µM; relative to: untreated cells — “mRNA level ratio”: 0.968 and 0.983 and 1.01 and 0.979 and 0.935.
A549; DNA microarray, item: GAPDH; 100 µM; relative to: untreated cells — “mRNA level ratio”: 0.791 and 0.798 and 0.762 and 0.79.

Sample 4
SMILES: O=C(O)C1(O)Oc2cc(Br)ccc2N(Cc2ccccc2)C1=O (centres unmarked)
It gave 100% for inhibition (Avena fatua; fresh weight; 150 g ai/ha, pre-emergence treatment).
Arabidopsis thaliana; root length; Col-0, seedlings; 50 µg/mL — inhibition: 59.6%.
It gave 51.9% and 53.9% and 56.4% for inhibition (Amaranthus retroflexus; fresh weight; 150 g ai/ha, post-emergence treatment).
It gave 59.6% for inhibition (Arabidopsis thaliana; root length; Col-0, seedlings; 50 µg/mL; relative to: water control).
The inhibition was 19.8% (Arabidopsis thaliana; root length; Col-0, seedlings; 6.25 µg/mL; relative to: water control).
For Arabidopsis thaliana; hypocotyl length; Col-0; 25.0 µg/mL, 7 days, seed germination, dark: inhibition read 18.2%.
The inhibition was 7.7% (Arabidopsis thaliana; hypocotyl length; Col-0; 12.5 µg/mL, 7 days, seed germination, dark).
The inhibition was 60.6% (Arabidopsis thaliana; hypocotyl length; Col-0; 100 µg/mL, 7 days, seed germination, dark).
It gave 0.2% and 0.4% and 0.3% for inhibition (Glycine max; fresh weight; soil surface spray, 150 g ai/ha, 21 days, pre-emergence crop safety).
For Arabidopsis thaliana; hypocotyl length; Col-0, seedlings; 12.5 µg/mL: inhibition read 7.74%.
It gave 10.6% for inhibition (Arabidopsis thaliana; root length; Col-0, seedlings; 3.125 µg/mL).
For Arabidopsis thaliana; root length; Col-0, seedlings; 25 µg/mL; relative to: water control: inhibition read 41.7%.
For Arabidopsis thaliana; root length; Col-0, seedlings; 25 µg/mL: inhibition read 41.7%.
It gave 60.6% for inhibition (Arabidopsis thaliana; hypocotyl length; Col-0, seedlings; 100 µg/mL).

A few entries again (sample 3):
A549; microarray, item: PIF1; 100 µM; relative to: untreated — “mRNA level ratio”: 0.696.
A549; DNA microarray, item: MCM10; 100 µM; relative to: untreated cells — “mRNA level ratio”: 0.747.
It gave 0.811 for “mRNA level ratio” (SK-OV-3; microarray, item: PIF1; 25 µM; relative to: untreated).
A549; DNA microarray, item: GAPDH; 100 µM; relative to: untreated cells — “mRNA level ratio”: 0.791 and 0.798 and 0.762 and 0.79.
SK-OV-3; microarray, item: AURKA; 100 µM; relative to: untreated — “mRNA level ratio”: 1.04.
For A549; DNA microarray, item: TMEM108; 100 µM; relative to: untreated cells: “mRNA level ratio” read 2.99.
For A549; microarray, item: PIF1; 25 µM; relative to: untreated: “mRNA level ratio” read 0.855.
For PANC-1; microarray, item: SPC25; 100 µM; relative to: untreated: “mRNA level ratio” read 1.4.
